Assay results of several laboratories.
Protocols differ between the studies behind these lines. “And” joins repeats or separate records; there may be more than shown. ± marks the error that the study gave.

SMILES	assay	system	setting	plasma concentration
CC(C)n1ncc2c(C(=O)NC[C@@H](C)N)cc(C3CC3)nc21	–	mouse BALB/c female, plasma	intraperitoneal, 30 mg/kg, 1 h	1520 ng/mL and 1420 ng/mL and 1350 ng/mL and 1340 ng/mL
Cc1ccc(OCC(=O)N(Cc2cccs2)c2ccn[nH]2)cc1	–	mouse, CD-1, male, plasma	oral, 30 mg/kg, 4 h	7 nM
Cc1cc(C(=O)N[C@@H](CC(=O)NC(C)(C)C)C(=O)NCCNC(=O)c2cc(-c3ccccc3)ccn2)no1	–	mouse, plasma	oral, 1 mg/kg	< 2 ng/mL
Cc1nn(-c2nc3c(F)cc(F)cc3s2)c(O)c1C(c1ccc(C(F)(F)F)cc1)c1c(C)nn(-c2nc3c(F)cc(F)cc3s2)c1O	–	ICR mouse	oral, 50 mg/kg, 0.50 h	94900 ng/mL and 93300 ng/mL and 55300 ng/mL
CC#CC(=O)N1CCC[C@H]1c1nc(-c2ccc(C(=O)Nc3ccccn3)cc2)c2c(N)nccn12	–	mouse, TMD8 tumour-bearing, plasma	15 mg/kg twice daily, 8 h	15.3 ng/mL
CC1(C)CC[C@@]2(CO)C(=C3C=C[C@@H]4[C@@]5(C)CC[C@H](O)[C@@](C)(CO)[C@@H]5CC[C@@]4(C)[C@]3(C)C[C@@H]2O)C1	UHPLC-MS/MS	mouse, plasma	oral, 50 mg/kg of saikosaponin a, 10 h	34.2 ng/mL
O=C1C2CC3CC1CC(C(=O)N1CCN(c4ccc([N+](=O)[O-])c5ncccc45)CC1)(C3)C2	–	ICR mouse, male	oral, 5 mg/kg, 1 h	12.6 ng/mL
C=CC(=O)N1CCCC(n2c(=O)c3ncccc3n(Cc3ccc(Oc4ccccc4)cc3)c2=O)C1 (centres unmarked)	–	male BALB/c mouse, plasma	oral, 200 mg/kg, 0.0833 h	9520 ng/mL
C=CC(=O)N1CCC[C@@H](c2ccc(C(N)=O)c3[nH]ccc23)C1	–	mouse, TMD8 tumour-bearing, plasma	7.5 mg/kg twice daily, 8 h	4.39 ng/mL
CCC(=O)N(C)c1ccc(Cl)c(Cl)c1	LC-MS/MS	mouse C57BL/6 female, plasma	oral, 10 mg/kg, 0.5 h	219 ng/mL and 215 ng/mL
O=S(=O)(N[C@H]1CCO[C@@H](C2c3ccc(F)cc3CCc3cc(F)ccc32)C1)c1ccc(OC(F)(F)F)cc1	–	mouse	oral, 30 mg/kg, 2-8 h	~4000 nM
[2H]C([2H])(N)C([2H])([2H])NC(=O)c1cc(C2CC2)nc2c1cnn2C(C)C	–	mouse BALB/c female, plasma	intraperitoneal, 50 mg/kg, 2 h	2360 ng/mL and 2100 ng/mL and 2280 ng/mL and 1980 ng/mL
Cc1ncsc1-c1ccc(CNC(=O)[C@@H]2C[C@@H](O)CN2C(=O)[C@@H](NC(=O)COCC(C)(COCCOCCOCCNC(=O)C[C@@H]2N=C(c3ccc(Cl)cc3)c3c(sc(C)c3C)-n3c(C)nnc32)COCCOCCOCCNC(=O)C[C@@H]2N=C(c3ccc(Cl)cc3)c3c(sc(C)c3C)-n3c(C)nnc32)C(C)(C)C)cc1	–	C57BL/6 mouse, male, plasma	intravenous, 5 mg/kg, 30 min	6890 ng/mL
O=C1CCC(N2Cc3cc(C(=O)O)c(F)cc3C2=O)C(=O)N1 (centres unmarked)	–	CD-1 mouse, male	oral, 10 mg/kg parent drug, 0.17 h	55.2 ± 16.6 ng/mL

Some of these lines once more:
SMILES	assay	system	setting	plasma concentration
CC#CC(=O)N1CCC[C@H]1c1nc(-c2ccc(C(=O)Nc3ccccn3)cc2)c2c(N)nccn12	–	mouse, TMD8 tumour-bearing, plasma	15 mg/kg twice daily, 8 h	15.3 ng/mL
CC1(C)CC[C@@]2(CO)C(=C3C=C[C@@H]4[C@@]5(C)CC[C@H](O)[C@@](C)(CO)[C@@H]5CC[C@@]4(C)[C@]3(C)C[C@@H]2O)C1	UHPLC-MS/MS	mouse, plasma	oral, 50 mg/kg of saikosaponin a, 10 h	34.2 ng/mL
